Experimental data of several laboratories.
Every numbered part comes from another study and shows a few of its results, in no order.
Sequence of UniProt Q15831 (whole entry, looked up): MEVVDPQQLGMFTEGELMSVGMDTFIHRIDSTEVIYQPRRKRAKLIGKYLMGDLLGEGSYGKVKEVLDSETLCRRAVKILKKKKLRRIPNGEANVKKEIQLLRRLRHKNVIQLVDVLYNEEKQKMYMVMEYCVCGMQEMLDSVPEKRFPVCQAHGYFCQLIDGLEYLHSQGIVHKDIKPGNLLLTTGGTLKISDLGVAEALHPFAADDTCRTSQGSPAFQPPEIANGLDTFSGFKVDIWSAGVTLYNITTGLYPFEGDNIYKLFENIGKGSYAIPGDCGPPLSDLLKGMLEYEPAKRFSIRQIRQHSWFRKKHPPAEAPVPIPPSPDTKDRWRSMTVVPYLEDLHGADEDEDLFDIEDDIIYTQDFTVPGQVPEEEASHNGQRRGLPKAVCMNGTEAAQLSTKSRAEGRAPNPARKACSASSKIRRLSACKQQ
Sequence of UniProt Q52WX2 (whole entry, looked up): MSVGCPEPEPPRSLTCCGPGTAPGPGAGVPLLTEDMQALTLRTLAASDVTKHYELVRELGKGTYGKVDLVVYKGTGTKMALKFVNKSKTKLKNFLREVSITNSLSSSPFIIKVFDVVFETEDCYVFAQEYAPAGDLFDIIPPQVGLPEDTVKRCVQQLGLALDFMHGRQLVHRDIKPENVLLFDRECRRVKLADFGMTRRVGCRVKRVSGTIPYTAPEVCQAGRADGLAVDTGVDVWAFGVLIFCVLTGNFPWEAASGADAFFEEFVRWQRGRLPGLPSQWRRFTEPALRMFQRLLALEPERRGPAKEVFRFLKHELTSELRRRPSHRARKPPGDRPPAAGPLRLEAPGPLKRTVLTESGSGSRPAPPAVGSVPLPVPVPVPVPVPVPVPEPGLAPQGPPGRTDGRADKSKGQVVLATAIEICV
Sequence of UniProt Q9NRP7 (whole entry, looked up): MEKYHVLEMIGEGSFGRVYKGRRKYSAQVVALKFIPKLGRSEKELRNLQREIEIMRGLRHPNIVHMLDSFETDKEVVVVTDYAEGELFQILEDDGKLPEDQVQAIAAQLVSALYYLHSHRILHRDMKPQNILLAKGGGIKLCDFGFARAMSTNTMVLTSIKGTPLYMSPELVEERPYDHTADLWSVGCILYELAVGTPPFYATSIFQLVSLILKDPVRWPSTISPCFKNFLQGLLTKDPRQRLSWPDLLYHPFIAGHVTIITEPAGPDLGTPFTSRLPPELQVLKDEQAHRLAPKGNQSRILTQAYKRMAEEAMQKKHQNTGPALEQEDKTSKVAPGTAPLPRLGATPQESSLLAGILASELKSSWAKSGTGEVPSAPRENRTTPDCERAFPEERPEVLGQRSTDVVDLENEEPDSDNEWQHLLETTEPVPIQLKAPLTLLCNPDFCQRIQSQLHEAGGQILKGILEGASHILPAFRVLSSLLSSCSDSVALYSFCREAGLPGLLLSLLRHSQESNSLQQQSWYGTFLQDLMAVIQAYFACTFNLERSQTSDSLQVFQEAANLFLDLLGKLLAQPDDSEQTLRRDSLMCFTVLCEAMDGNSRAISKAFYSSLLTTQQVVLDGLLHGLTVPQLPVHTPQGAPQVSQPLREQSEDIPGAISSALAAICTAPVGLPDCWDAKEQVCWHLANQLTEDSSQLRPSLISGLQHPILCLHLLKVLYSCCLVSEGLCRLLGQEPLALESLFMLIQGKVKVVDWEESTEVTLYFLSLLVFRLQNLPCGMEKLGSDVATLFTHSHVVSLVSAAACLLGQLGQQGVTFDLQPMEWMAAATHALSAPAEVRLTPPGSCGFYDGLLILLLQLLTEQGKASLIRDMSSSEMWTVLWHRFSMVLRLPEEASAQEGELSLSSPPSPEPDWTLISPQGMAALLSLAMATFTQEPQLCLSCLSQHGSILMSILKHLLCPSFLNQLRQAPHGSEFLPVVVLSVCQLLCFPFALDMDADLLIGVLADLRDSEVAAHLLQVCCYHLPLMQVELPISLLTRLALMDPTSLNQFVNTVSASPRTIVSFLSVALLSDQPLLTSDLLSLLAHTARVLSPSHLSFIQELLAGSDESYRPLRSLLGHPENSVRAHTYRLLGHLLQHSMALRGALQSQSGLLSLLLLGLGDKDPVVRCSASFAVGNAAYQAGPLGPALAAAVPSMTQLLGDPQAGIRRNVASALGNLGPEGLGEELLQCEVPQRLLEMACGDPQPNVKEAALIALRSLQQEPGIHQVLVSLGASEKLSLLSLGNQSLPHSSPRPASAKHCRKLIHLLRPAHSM
Sequence of UniProt P53350 (whole entry, looked up): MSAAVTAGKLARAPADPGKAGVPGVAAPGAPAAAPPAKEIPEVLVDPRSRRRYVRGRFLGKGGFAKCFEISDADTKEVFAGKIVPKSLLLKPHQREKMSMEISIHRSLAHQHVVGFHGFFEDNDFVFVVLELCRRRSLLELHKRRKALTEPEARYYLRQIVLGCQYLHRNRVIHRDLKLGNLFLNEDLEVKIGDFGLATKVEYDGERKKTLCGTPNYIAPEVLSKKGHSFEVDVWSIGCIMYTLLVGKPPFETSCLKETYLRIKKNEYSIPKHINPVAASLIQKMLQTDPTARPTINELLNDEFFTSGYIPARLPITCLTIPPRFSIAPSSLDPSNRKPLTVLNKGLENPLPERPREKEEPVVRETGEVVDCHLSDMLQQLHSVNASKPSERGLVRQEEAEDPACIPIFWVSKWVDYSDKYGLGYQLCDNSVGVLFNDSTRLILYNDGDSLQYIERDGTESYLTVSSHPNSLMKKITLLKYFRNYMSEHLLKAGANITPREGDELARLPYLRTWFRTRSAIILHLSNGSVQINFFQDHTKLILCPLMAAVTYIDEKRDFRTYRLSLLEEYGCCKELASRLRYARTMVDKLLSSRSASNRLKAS
Sequence of UniProt P33981 (whole entry, looked up): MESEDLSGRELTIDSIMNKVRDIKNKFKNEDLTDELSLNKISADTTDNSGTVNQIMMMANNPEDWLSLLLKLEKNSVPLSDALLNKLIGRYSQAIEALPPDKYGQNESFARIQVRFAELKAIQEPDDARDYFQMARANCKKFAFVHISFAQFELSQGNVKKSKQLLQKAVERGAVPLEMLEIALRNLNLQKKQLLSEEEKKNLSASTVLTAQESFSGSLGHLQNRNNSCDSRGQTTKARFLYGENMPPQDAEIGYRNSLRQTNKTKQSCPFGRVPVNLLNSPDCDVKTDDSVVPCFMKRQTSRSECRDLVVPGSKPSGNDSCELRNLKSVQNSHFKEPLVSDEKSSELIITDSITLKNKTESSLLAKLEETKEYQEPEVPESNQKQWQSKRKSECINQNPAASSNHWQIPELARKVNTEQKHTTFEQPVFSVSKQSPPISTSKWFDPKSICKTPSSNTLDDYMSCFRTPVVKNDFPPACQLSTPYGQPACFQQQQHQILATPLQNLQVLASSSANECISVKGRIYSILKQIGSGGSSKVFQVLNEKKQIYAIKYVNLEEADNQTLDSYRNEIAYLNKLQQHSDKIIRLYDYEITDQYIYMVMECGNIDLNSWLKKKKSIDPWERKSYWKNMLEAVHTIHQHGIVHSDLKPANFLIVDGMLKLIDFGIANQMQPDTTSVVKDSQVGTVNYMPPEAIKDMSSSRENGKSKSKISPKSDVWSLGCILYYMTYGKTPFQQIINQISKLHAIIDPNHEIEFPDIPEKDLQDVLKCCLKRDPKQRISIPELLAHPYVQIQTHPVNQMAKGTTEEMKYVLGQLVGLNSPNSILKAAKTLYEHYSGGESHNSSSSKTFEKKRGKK
Sequence of UniProt Q00537 (whole entry, looked up): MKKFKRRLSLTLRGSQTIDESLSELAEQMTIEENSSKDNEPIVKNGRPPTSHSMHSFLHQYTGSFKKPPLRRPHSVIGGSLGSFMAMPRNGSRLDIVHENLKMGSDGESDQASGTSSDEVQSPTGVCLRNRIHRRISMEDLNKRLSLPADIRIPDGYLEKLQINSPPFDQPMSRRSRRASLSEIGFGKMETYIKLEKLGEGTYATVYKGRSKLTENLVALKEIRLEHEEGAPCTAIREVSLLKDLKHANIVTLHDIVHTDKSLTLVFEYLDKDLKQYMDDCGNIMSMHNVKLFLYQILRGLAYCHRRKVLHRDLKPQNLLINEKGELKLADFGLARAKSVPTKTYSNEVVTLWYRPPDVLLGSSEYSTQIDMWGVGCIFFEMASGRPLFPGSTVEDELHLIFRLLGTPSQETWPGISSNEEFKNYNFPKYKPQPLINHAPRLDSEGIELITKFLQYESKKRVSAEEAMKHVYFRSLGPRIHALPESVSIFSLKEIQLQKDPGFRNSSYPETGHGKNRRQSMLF

Set 1 — host: mouse; sample: microsomes or S9; concentration: 2 µM; time: 0.5 h
| SMILES | remaining compound [%] |
| --- | --- |
| CCn1[nH]/c(=N\S(=O)(=O)c2ccc(C)cc2)c2cc3cccc(C)c3nc21 | 1.35 |
| CN1C(=O)C(c2c(-c3ccc(Br)cc3)[nH]c3[nH]c(=O)[nH]c(=O)c23)c2ccccc21 (centres unmarked) | 34.7 |
| COc1ccc2ccccc2c1CNCc1ccc(F)cc1 | 0.337 |
| Cc1ccc(N(C(C)C(=O)N(C)C)S(C)(=O)=O)cc1 (centres unmarked) | 41.6 |

Set 2 — observed: cell-free assay; technique: competition with immobilised ligand; concentration: 1 µM
SMILES: CN([C@@H]1CCc2c(CC(=O)O)c3ccccc3n2C1)S(=O)(=O)c1ccc(F)cc1
| target | remaining binding [%] |
| --- | --- |
| STK36 (Homo sapiens, UniProt Q9NRP7) | 100 |
| PLK1 (Homo sapiens, UniProt P53350) | 98 |
| SBK1 (Homo sapiens, UniProt Q52WX2) | 100 |
| STK11 (Homo sapiens, UniProt Q15831) | 56 |
| TTK (Homo sapiens, UniProt P33981) | 100 |
| CDK17 (Homo sapiens, UniProt Q00537) | 100 |

Set 3 — cell line: A-375; concentration: 100 µM; time: 36 h
| Structure (SMILES) | viability |
| --- | --- |
| C[C@@H]1O[C@@H](OC[C@H]2O[C@@H](Oc3c(-c4ccc(O)c(O)c4)oc4cc(O)cc(O)c4c3=O)[C@H](O)[C@@H](O)[C@@H]2O)[C@H](O)[C@H](O)[C@H]1O | 105% |
| CCOC(=O)C1=C(C)NC(C)=C(C(=O)OC)C1c1cccc(Cl)c1Cl (centres unmarked) | -2.22% |
| CC(=O)O[C@H]1CC[C@@]2(C)C(=CC[C@@H]3[C@@H]2CC[C@]2(C)C(c4cccnc4)=CC[C@@H]32)C1 | 1.57% |
| CC[C@H](C)C(=O)O[C@H]1C[C@@H](C)C=C2C=C[C@H](C)[C@H](CC[C@@H]3C[C@@H](O)CC(=O)O3)[C@H]21 | 35% |
| CCCCOc1ccc(CC(=O)NO)cc1 | 69.9% |
| Cc1ncc(CSSCc2cnc(C)c(O)c2CO)c(CO)c1O | 108% |

Set 4 — observed: enzyme activity; mode: inhibitor; concentration: 0.5 µM; baseline: control
Target: Serine/threonine-protein kinase BRSK2 (BRSK2, Homo sapiens, UniProt Q8IWQ3)
Residues (Q8IWQ3 1-736): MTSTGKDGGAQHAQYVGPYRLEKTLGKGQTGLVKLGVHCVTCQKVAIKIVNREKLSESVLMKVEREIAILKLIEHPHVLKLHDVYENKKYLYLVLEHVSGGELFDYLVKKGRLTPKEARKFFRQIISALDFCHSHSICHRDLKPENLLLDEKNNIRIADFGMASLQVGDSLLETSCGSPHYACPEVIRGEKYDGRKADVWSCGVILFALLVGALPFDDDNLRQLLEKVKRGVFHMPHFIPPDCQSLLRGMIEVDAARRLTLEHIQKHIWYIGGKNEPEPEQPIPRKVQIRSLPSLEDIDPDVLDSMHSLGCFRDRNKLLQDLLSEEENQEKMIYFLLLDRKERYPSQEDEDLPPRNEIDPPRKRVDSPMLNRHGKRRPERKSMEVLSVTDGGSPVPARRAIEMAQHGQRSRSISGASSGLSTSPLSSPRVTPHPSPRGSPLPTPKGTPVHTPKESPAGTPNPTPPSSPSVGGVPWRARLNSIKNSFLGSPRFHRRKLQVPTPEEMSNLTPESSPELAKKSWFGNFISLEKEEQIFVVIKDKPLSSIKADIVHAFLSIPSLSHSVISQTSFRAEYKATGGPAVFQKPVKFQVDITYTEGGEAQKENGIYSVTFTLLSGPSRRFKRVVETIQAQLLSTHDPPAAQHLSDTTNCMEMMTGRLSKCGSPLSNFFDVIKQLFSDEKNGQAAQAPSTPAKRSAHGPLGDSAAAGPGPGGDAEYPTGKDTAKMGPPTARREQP
| SMILES | remaining activity [%] |
| --- | --- |
| COc1ccc(OC)c2c(=S)c3ccccc3[nH]c12 | 92.5 |
| O=C(CCCc1ccc(-c2ccccc2F)cc1)Nc1ccc(O)cc1 | 99.2 |
| CO[C@H]1C[C@@H]2CC[C@@H](C)[C@@](O)(O2)C(=O)C(=O)N2CCCC[C@H]2C(=O)O[C@H]([C@H](C)C[C@@H]2CC[C@@H](O)[C@H](OC)C2)CC(=O)[C@H](C)/C=C(\C)[C@@H](O)[C@@H](OC)C(=O)[C@H](C)C[C@H](C)/C=C/C=C/C=C/1C | 109 |
| Nc1ncnc2n[nH]c(Nc3ccc(F)cc3)c12 | 60.6 |
| CN(C)c1ccc(C=C2C(=O)Nc3ccccc32)cc1 | 93 |
| Cc1nc(-c2ccccc2)c(-c2ccncc2)o1 | 95 |
| COc1cc2ncnc(Nc3ccc(F)c(Cl)c3)c2cc1OCCCN1CCOCC1 | 103 |
